Measured values gathered from unrelated publications.
Lines come from different studies, so protocols differ.

SMILES | test | test system | setting | endpoint | result
CCC[C@@H]1O[C@@H]2C[C@H]3[C@@H]4C[C@H](F)C5=CC(=O)CC[C@]5(C)[C@@]4(F)[C@@H](O)C[C@]3(C)[C@]2(C(=O)CO)O1 | refers to: parent steroid | CD1 mice, plasma | intravenous, 0.15 mg/kg, added: budesonide 0.2 mg/kg | half-life | 0.33 h
CC(C)C[C@H](NC(=O)c1cc2c(OC(F)(F)F)cccc2[nH]1)C(=O)N[C@@H](C[C@@H]1CCNC1=O)C(=O)c1nc2ccccc2s1 |  | Jcl:ICR mice, female | intravenous, 2.0 mg/kg | half-life | 0.833 to 1 h
Cc1cc(Oc2nc(N3CC[C@@H](c4ccncc4)C3)ncc2F)[nH]n1 |  | BALB/c mice female | oral, 5 mg/kg | half-life | 0.76 h
CSCC[C@H](N)C(=O)N[C@@H](Cc1c[nH]cn1)C(=O)N[C@@H](CO)C(=O)N[C@@H](CC(=O)O)C(=O)N[C@@H](C)C(=O)N[C@H](C(=O)N[C@@H](Cc1ccccc1)C(=O)N[C@H](C(=O)N[C@@H](CC(=O)O)C(=O)N[C@@H](CCC(N)=O)C(=O)N[C@@H](Cc1ccc(O)cc1)C(=O)N[C@H](C(=O)N[C@@H](CCCNC(=N)N)C(=O)N[C@@H](CC(C)C)C(=O)N[C@@H](CCCNC(=N)N)C(=O)N[C@@H](CCCCN)C(=O)N[C@@H](CCC(N)=O)C(=O)N[C@@H](CC(C)C)C(=O)N[C@@H](C)C(=O)N[C@@H](C)C(=O)N[C@@H](CCCCN)C(=O)N[C@@H](CCCCN)C(=O)N[C@@H](Cc1ccc(O)cc1)C(=O)N[C@@H](CC(C)C)C(=O)N[C@@H](CCC(N)=O)C(=O)N[C@@H](CO)C(=O)N[C@@H](CC(C)C)C(=O)N[C@@H](CCCCN)C(=O)N[C@@H](CCC(N)=O)C(=O)N[C@@H](CCCCN)C(=O)N[C@@H](CCCNC(=N)N)C(=O)N[C@@H](Cc1ccc(O)cc1)C(=O)O)[C@@H](C)O)[C@@H](C)O)C(C)C |  | db/db mice, male, blood | intravenous, 1.0 mg/kg | half-life | 1.98 h
CCn1ccc(-c2cc(-c3cnn(C)c3)cc([C@@H](C)NC(=O)c3cc(OCCN(C)C)ccc3C)c2)n1 |  | C57BL/6J mice, male, plasma | oral, 50 mg/kg | half-life | 2.01 h
COc1cccc2[nH]c(C(=O)N[C@@H](CC(C)C)C(=O)N[C@@H](C[C@@H]3CCNC3=O)C(=O)c3nc4ccccc4s3)cc12 |  | Jcl:ICR mice, female | intravenous, 2.0 mg/kg | half-life | < 0.383 h
CC(C)C[C@H]1NC(=O)[C@H](NC(=O)CN)CSSC[C@H]2NC(=O)[C@H]3CSSC[C@H](C(=O)N[C@H](CC(N)=O)C(=O)N[C@H](Cc4ccccc4)C(=O)N[C@H](CO)C(=O)N[C@H](Cc4ccccc4)C(N)=O)NC(=O)[C@@H](CC(C)C)NC(=O)[C@@H](CCCCN)NC(=O)[C@@H](Cc4ccccc4)NC(=O)[C@@H](CC(C)C)NC(=O)[C@@H](CCCCN)NC(=O)[C@@H](CO)NC(=O)[C@@H](CSSC[C@@H](NC(=O)[C@@H](CCCCN)NC(=O)[C@@H](Cc4c[nH]c5ccccc45)NC(=O)[C@@H](Cc4c[nH]c5ccccc45)NC(=O)[C@@H](Cc4ccccc4)NC(=O)[C@@H](CCC(=O)O)NC1=O)C(=O)N[C@H](CC(N)=O)C(=O)N1CCC[C@@H]1C(=O)N[C@H](CC(N)=O)C(=O)N[C@H](CC(=O)O)C(=O)N[C@H](CC(=O)O)C(=O)N[C@H](CCCCN)C(=O)N3)NC(=O)[C@@H](CCCCN)NC(=O)[C@@H](CC(C)C)NC(=O)[C@@H](CCCCN)NC(=O)[C@H]1CCCN1C(=O)[C@@H](CCCNC(=N)N)NC2=O | LC-MS/MS | D2.mdx mice | subcutaneous, 10 mg/kg, over four weeks | half-life | 168 h
O=C(CN1CCN(c2cc3c(cc2F)c(=O)c(C(=O)O)cn3C2CC2)CC1)Nc1ccc(Cl)cc1 |  | female BALB/c mice, plasma | intravenous, 1.25 mg/kg | half-life | 5.68 h
CN(CC(=O)N(Cc1ccc(C2CCCCC2)cc1)c1ccc(C(=O)O)cc1)S(=O)(=O)c1c(F)c(F)c(F)c(F)c1F |  | CD-1 mice, plasma | intraperitoneal, 20 mg/kg | half-life | 0.25 h
CC(C)[C@H]1NC(=O)C[C@H]2/C=C/CCSSC[C@@H](NC1=O)C(=O)N[C@H](Cc1cccc3ccccc13)C(=O)NCC(=O)O2 |  | BALB/cAJcl-nu/nu mice, blood | dose not given, intravenous, intraperitoneal and oral | half-life | ≤ 1 h
C=Cc1c(C)c2cc3nc(c(CC(=O)O)c4[nH]c(cc5nc(cc1[nH]2)C(C)=C5CC)c(C)c4C(=O)O)[C@@H](CCC(=O)NCCCC[C@H](NC(C)=O)C(=O)N[C@@H](Cc1ccccc1)C(=O)N[C@@H](Cc1ccccc1)C(=O)N[C@H](C(=O)N[C@@H](CC(C)C)C(=O)N[C@@H](CCCCN)C(=O)N[C@@H](CO)C(=O)NCC(=O)N[C@@H](CCC(N)=O)C(=O)N[C@@H](Cc1ccc(O)cc1)C(=O)N[C@@H](C)C(=O)N[C@@H](CO)C(=O)N[C@@H](Cc1ccc(O)cc1)C(=O)N[C@@H](Cc1c[nH]cn1)C(=O)N[C@@H](CS)C(=O)N[C@@H](Cc1c[nH]c2ccccc12)C(=O)N[C@@H](CS)C(=O)N[C@@H](Cc1c[nH]c2ccccc12)C(=O)N[C@@H](CCCNC(=N)N)C(=O)N[C@@H](CC(=O)O)C(=O)N1CCC[C@H]1C(=O)NCC(=O)N[C@@H](CCCNC(=N)N)C(=O)N[C@@H](CO)C(=O)NCC(=O)NCC(=O)N[C@@H](CO)C(=O)N[C@@H](CCCCN)C(N)=O)C(C)C)[C@@H]3C |  | tumour-free mice, plasma | iv, 13 mg/kg | half-life beta | 22.2 h

A few entries again:
SMILES | test | test system | setting | endpoint | result
COc1cccc2[nH]c(C(=O)N[C@@H](CC(C)C)C(=O)N[C@@H](C[C@@H]3CCNC3=O)C(=O)c3nc4ccccc4s3)cc12 |  | Jcl:ICR mice, female | intravenous, 2.0 mg/kg | half-life | < 0.383 h
